Published values gathered from unrelated publications.
Each line is one published result; not all experiments were run side by side. ± gives the spread as reported.
JAK2: Tyrosine-protein kinase JAK2 (JAK2, Homo sapiens, UniProt O60674)
UniProt O60674, sequence (whole entry, looked up): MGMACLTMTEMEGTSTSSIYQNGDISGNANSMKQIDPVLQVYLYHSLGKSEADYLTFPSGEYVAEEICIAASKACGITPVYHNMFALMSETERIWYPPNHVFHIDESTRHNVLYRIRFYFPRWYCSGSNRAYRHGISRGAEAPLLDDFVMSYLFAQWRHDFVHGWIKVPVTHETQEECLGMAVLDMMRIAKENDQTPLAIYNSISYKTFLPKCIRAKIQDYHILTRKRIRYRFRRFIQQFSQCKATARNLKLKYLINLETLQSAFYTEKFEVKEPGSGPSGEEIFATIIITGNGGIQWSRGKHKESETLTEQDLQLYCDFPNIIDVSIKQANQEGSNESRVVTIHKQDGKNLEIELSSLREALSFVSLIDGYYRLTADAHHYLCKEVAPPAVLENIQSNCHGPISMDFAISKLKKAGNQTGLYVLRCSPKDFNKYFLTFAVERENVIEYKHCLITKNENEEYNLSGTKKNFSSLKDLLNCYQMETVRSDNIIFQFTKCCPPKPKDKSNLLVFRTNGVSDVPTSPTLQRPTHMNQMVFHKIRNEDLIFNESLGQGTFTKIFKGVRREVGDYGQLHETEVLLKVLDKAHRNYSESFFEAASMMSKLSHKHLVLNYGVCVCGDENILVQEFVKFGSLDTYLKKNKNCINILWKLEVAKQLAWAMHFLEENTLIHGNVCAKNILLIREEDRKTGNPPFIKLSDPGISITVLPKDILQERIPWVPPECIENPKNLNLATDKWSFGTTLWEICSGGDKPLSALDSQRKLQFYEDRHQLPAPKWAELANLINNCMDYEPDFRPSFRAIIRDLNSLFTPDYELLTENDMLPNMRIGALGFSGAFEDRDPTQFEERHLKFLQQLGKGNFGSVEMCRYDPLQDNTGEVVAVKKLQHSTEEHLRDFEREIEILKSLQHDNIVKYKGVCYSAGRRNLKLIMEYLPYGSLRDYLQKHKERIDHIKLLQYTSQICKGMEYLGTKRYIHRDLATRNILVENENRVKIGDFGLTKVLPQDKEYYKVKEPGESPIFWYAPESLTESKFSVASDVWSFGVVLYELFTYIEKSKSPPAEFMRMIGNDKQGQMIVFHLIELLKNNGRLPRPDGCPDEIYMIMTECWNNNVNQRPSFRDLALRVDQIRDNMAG
PIK3CG: Phosphatidylinositol 4,5-bisphosphate 3-kinase catalytic subunit gamma isoform (PIK3CG, Homo sapiens, UniProt P48736)
UniProt P48736, sequence (whole entry, looked up): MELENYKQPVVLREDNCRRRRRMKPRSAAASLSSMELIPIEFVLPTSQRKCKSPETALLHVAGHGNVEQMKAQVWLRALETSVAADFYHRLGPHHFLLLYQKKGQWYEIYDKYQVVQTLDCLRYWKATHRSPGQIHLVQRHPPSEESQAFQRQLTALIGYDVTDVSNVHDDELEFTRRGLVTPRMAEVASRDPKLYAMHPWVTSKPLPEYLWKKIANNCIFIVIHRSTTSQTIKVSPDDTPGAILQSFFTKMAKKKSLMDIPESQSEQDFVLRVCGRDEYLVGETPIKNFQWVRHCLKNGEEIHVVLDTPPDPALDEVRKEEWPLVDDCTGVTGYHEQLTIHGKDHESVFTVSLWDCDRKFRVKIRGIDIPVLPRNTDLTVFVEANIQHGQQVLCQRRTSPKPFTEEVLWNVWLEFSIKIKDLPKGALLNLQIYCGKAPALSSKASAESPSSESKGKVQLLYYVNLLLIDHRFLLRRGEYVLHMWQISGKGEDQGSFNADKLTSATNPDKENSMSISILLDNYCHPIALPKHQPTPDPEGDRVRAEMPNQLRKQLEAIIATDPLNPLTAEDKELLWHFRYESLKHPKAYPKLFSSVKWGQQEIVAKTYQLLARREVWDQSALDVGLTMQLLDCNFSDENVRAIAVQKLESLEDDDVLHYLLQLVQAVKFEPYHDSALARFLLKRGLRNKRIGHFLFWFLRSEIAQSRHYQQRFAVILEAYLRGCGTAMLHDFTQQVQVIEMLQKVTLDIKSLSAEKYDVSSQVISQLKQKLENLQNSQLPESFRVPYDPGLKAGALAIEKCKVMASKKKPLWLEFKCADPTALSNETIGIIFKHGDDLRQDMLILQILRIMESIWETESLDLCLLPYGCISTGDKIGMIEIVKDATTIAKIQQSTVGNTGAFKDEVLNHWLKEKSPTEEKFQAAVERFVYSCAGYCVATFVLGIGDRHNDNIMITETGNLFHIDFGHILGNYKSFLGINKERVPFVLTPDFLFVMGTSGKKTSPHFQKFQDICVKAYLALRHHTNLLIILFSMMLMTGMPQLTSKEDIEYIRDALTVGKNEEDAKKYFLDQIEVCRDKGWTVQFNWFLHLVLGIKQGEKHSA
PPARA ligand-binding domain: Peroxisome proliferator-activated receptor alpha, ligand-binding domain (PPARA, Homo sapiens, UniProt Q07869)
UniProt Q07869, sequence (whole entry, looked up): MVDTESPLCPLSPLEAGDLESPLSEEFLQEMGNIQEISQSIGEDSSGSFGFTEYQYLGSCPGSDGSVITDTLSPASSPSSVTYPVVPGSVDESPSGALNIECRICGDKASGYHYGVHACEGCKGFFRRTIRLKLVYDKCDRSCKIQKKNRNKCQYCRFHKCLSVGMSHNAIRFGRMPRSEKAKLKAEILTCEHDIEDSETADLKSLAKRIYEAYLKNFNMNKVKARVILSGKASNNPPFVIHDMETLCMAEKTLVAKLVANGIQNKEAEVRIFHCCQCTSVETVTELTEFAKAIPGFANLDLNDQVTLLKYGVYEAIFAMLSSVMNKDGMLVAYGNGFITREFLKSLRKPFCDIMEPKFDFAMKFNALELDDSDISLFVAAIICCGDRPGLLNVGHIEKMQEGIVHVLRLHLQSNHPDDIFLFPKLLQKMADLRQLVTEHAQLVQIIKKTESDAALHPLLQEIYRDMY
GBA2: Beta-glucosidase (GBA2, Homo sapiens, UniProt Q9HCG7)
UniProt Q9HCG7, sequence (whole entry, looked up): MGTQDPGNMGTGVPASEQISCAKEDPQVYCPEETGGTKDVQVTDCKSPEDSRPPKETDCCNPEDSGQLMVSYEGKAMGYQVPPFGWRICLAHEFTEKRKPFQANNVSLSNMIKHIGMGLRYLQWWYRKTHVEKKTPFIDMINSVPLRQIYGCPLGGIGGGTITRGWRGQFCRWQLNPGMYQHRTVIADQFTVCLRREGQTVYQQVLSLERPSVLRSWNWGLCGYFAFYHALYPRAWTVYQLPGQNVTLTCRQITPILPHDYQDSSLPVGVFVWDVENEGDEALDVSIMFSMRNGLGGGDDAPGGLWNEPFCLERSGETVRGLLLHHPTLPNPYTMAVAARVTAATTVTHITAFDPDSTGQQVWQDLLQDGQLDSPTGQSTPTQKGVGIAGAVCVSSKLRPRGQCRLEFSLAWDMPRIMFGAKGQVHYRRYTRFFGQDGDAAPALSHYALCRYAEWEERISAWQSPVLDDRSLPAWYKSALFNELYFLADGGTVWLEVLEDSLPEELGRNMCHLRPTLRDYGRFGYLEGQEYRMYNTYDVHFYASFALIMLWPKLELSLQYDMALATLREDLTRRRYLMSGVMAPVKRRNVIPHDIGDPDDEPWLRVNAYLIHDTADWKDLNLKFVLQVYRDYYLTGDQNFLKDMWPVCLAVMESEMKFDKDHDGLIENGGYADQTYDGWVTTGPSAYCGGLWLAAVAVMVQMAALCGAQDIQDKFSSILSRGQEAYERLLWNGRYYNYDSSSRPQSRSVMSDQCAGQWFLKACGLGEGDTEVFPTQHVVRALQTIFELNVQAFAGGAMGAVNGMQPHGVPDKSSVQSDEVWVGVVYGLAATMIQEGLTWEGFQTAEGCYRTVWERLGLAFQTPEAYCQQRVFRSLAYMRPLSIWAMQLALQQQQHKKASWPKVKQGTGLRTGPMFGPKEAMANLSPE
SIRT2: NAD-dependent protein deacetylase sirtuin-2 (SIRT2, Homo sapiens, UniProt Q8IXJ6)
UniProt Q8IXJ6, sequence (whole entry, looked up): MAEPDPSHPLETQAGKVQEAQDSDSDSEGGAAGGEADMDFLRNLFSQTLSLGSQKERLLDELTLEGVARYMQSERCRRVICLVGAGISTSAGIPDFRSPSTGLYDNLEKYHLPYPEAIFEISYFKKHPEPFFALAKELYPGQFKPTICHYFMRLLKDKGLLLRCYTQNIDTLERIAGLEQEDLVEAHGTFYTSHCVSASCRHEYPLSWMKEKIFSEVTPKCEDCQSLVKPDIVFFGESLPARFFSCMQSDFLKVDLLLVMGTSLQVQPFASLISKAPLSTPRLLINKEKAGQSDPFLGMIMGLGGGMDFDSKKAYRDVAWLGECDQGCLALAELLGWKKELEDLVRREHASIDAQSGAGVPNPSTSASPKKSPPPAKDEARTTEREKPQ
RET: Proto-oncogene tyrosine-protein kinase receptor Ret (RET, Homo sapiens, UniProt P07949)
Sensor histidine kinase AirS: Sensor histidine kinase AirS (Staphylococcus aureus, UniProt Q2FX96)
Chymotrypsinogen A: Chymotrypsinogen A (Bos taurus, UniProt P00766)
PIP4K2C: Phosphatidylinositol 5-phosphate 4-kinase type-2 gamma (PIP4K2C, Homo sapiens, UniProt Q8TBX8)
UniProt Q8TBX8, sequence (whole entry, looked up): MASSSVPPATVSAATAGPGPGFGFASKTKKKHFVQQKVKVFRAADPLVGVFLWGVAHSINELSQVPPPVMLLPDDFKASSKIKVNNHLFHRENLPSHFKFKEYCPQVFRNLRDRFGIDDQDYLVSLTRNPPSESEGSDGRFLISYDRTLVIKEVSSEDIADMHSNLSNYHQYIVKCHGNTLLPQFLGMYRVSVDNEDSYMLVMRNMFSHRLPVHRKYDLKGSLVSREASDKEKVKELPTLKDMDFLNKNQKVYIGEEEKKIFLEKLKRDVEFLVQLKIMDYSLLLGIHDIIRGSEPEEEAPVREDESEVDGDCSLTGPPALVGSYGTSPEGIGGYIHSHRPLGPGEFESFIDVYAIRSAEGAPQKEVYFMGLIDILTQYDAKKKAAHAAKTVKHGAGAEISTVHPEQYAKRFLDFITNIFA
UniProt P04746, sequence (whole entry, looked up): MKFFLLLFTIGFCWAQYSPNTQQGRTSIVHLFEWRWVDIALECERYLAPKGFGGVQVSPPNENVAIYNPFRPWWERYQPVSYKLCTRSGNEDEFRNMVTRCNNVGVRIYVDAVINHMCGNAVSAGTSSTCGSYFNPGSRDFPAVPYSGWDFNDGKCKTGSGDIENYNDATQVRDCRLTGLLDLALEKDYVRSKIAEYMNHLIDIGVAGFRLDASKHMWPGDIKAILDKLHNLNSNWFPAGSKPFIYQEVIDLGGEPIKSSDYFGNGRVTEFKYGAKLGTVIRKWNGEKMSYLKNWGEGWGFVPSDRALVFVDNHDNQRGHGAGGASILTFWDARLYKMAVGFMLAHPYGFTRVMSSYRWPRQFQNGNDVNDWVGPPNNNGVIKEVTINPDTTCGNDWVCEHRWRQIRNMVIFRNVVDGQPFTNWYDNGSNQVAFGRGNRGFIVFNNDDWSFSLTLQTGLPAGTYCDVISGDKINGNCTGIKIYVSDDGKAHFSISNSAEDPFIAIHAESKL
UniProt P10997, sequence (whole entry, looked up): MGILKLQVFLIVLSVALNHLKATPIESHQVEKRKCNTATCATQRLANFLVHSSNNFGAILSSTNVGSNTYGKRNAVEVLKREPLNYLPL

Cc1cnc2nc1Nc1cc(F)cc(c1)COC/C=C/COCc1cc(ccc1OCCN1CCCC1)N2 — IC50 (JAK2; enzyme activity, inhibitor, FRET): 5.89 nM
O=C1/C(=N\c2ccc(Cl)cc2Br)c2ccccc2N1Cc1cccc(Cl)c1 (mixture of isomers) — IC50 (PIK3CG; enzyme activity, inhibitor, ADP detection): 2.16 nM
Cc1ncsc1-c1ccc(C(C)NC(=O)C2CC(O)CN2C(=O)C(NC(=O)CCCCCCCCCCN2CCCC(Nc3ncc(Cl)c(Nc4ccccc4S(=O)(=O)C(C)C)n3)C2)C(C)(C)C)cc1 (stereo not drawn) — log2 fold change (22Rv1; RNA-seq, refers to: MZF1-AS1; concentration not given; relative to: DMSO): -1.2
Cc1ccc(S(=O)(=O)N/N=C/c2ccsc2B(O)O)cc1 — IC50 (PLAU (Homo sapiens, UniProt P00749); enzyme activity, inhibitor): > 100000 nM
Cc1c(Cc2ccc(OC(C)(C)C(=O)O)cc2)c2ccc(C(=O)N[C@@H](C)c3cccc(C(C)(C)C)c3)cc2n1C — IC50 (PPARA ligand-binding domain; reporter gene, luciferase reporter; HEK293T, Gal4-PPARα LBD): 1230 nM
CC(C)CCC[C@@H](C)[C@H]1CC[C@H]2[C@@H]3CC=C4C[C@@H](OCCCCCN5C[C@H](O)[C@@H](O)[C@H](O)[C@@H]5CO)CC[C@]4(C)[C@H]3CC[C@]12C — IC50 (GBA2; inhibitor, 4MU-β-D-glucopyranoside; HEK293T homogenates overexpressing GBA2): 20 nM
Cc1cc(C)nc(SCC(=O)Nc2ncc(Cc3cccc(OCc4cn(-c5ccc(Cl)cc5)nn4)c3)s2)n1 — IC50 (SIRT2; enzyme activity, inhibitor, fluorescence): 110 nM
Cc1c(Cc2cccc(OC(C)C(=O)O)c2)c2ccc(C(=O)NC(C)c3ccc(C4CC4)cc3)cc2n1C (mixture of isomers) — IC50 (PPARA ligand-binding domain; reporter gene, luciferase reporter; HEK293T, Gal4-PPARα LBD): 31900 nM
C=CC(=O)Nc1cccc(Cn2ncc3cnc(Nc4cnn(CCOC)c4)nc32)c1 — binding (human S6K1; KINOMEscan; 100 nM; relative to: control): 90%
O=C1Nc2c(Br)cccc2/C1=C1/Nc2ccccc2C1=NO — IC50 (RET): > 10000 nM
CC1Cc2ccccc2N1C1=C(c2ccc(O)cc2)C(=O)NC1=O (stereo not drawn) — IC50 (Sensor histidine kinase AirS; autophosphorylation, inhibitor, BODIPY-FL-ATPγS competition): 221000 nM
CC1C(=O)N(C(=O)c2ccccc2)C1c1ccccc1 (racemic) — IC50 (Chymotrypsinogen A; enzyme activity, inhibitor, fluorescence): 3800 nM
Cc1cc(NC2CCN(C)CC2)ccc1-c1cc2c(N3CCC[C@H](C(=O)NCc4ccc(OC(F)(F)F)cc4)C3)ncnc2[nH]1 — IC50 (RET; enzyme activity, inhibitor, mobility shift): 531 nM
C#CCNC(=O)c1ccc(S(=O)(=O)N[C@@H](CCCCNC(=S)NC)C(=O)N[C@@H](CCCNC(=N)N)C(=O)N[C@@H](CC2CCCCC2)C(N)=O)cc1 — IC50 (SIRT2; enzyme activity, inhibitor, fluorescence): 110 nM
O=C(NCc1ccc(F)cc1)c1ccc(NC(=O)C(C(F)(F)F)C(F)(F)F)cc1 — IC50 (Chymotrypsinogen A; enzyme activity, inhibitor, fluorescence): > 100000 nM
CCN(CC)CC(=O)Nc1cccc(-n2cc(-c3ccc4ccc(-c5cn(-c6cccc(NC(=O)CN(CC)CC)c6)nn5)cc4c3)nn2)c1 — IC50 (PRKCQ (Homo sapiens, UniProt Q04759); enzyme activity, inhibitor): > 10000 nM
CCCCCCCCOCCCCCN1C[C@H](O)[C@@H](O)[C@H](O)[C@H]1CO — IC50 (GBA2; inhibitor, 4MU-β-D-glucopyranoside; HEK293T homogenates overexpressing GBA2): 10 nM
COCCOc1ccccc1NC(=O)C(C(F)(F)F)C(F)(F)F — IC50 (Chymotrypsinogen A; enzyme activity, inhibitor, fluorescence): 5700 nM
CN(C1=C(c2ccccc2)C(=O)NC1=O)c1ccccc1 — IC50 (Sensor histidine kinase AirS; autophosphorylation, inhibitor, BODIPY-FL-ATPγS in-gel fluorescence; lower bound of confidence interval): > 477000 nM
C[C@@H](O)[C@@H]1NC(=O)[C@H](CCCCN)NC(=O)[C@@H](Cc2c[nH]c3ccccc23)NC(=O)[C@H](Cc2ccc(NC(N)=O)cc2)NC(=O)[C@H](NC(=O)[C@H](Cc2ccccc2)NC(N)=O)CSSC[C@@H](C(=O)N[C@@H](Cc2ccc3ccccc3c2)C(N)=O)NC1=O — IC50 (SSTR2 (Homo sapiens, UniProt P30874); radioligand binding, inhibitor, competitive radioligand displacement; cloned receptor): 89 nM
Cc1c(COc2cc(OCc3cccc(C#N)c3)c(CN3CCCC[C@@H]3C(=O)O)cc2Cl)cccc1-c1cccc(OCCCCCC(=O)NO)c1 — IC50 (HDAC2 (Homo sapiens, UniProt Q92769); enzyme activity, inhibitor): 41.5 nM
Cc1cnc(Nc2ccc3c(c2)CCN(C(=O)/C=C/C(=O)C2CCCC2)C3)nc1-c1cnn(C(C)C)c1 — IC50 (JAK2; enzyme activity, inhibitor, ADP detection): 6.71 nM
Cn1cc(-c2ccc3[nH]c4c(c3c2)-c2nc(N)ncc2CCC4)cn1 — IC50 (PIP4K2C; target engagement in cells, BRET): 260 nM
Cc1nn(-c2cccc(N)c2)c(=O)c2cnc(Nc3ccc(N4CCNCC4)cc3)nc12 — IC50 (PRKD1 (Homo sapiens, UniProt Q15139); enzyme activity, inhibitor): 2630 nM
Cc1c(Cc2ccc(OC(C)C(=O)O)cc2)c2ccc(C(=O)NC(C)c3cccc(C(F)(F)F)c3)cc2n1C (mixture of isomers) — IC50 (PPARA ligand-binding domain; reporter gene, luciferase reporter; HEK293T, Gal4-PPARα LBD): 4600 nM
OC[C@@H]1[C@@H](O)[C@H](O)[C@@H](O)CN1CCCCCOCc1cccc(-c2ccccc2)c1 — IC50 (GBA2; inhibitor, 4MU-β-D-glucopyranoside; HEK293T homogenates overexpressing GBA2): 2 nM
COc1ccccc1N1CCN(C(=O)c2ccc(Cl)c([N+](=O)[O-])c2)CC1 — IC50 (SEC14 (Saccharomyces cerevisiae, UniProt P24280); enzyme activity, inhibitor, radiometric): 1070 nM
C[C@@H]1Cc2c([nH]c3ccccc23)[C@@H](c2c(F)cc(/C=C/C(=O)O)cc2F)N1C12CC(C1)C2 — IC50 (NR3C1 (Homo sapiens, UniProt P04150); GR receptor activity, antagonist, cell-based): 4290 nM
Cc1c(Cc2cccc(OC(C(=O)O)C(C)C)c2)c2ccc(C(=O)NC(C)c3cccc(C(C)(C)C)c3)cc2n1C (mixture of isomers) — IC50 (PPARA ligand-binding domain; reporter gene, luciferase reporter; HEK293T, Gal4-PPARα LBD): 3020 nM
CCCCCCCOCCCCCN1C[C@H](O)[C@@H](O)[C@H](O)[C@H]1CO — IC50 (GBA2; inhibitor, 4MU-β-D-glucopyranoside; HEK293T homogenates overexpressing GBA2): 15 nM
CN(C)c1ccc(CCC(=O)N2C(=O)C3(NC(c4ccc(F)cc4)C4(C(=O)Nc5ccccc54)N3Cc3ccc(F)cc3)c3ccccc32)cc1 (stereo not drawn) — IC50 (PIK3CG; enzyme activity, inhibitor, ADP detection): 49.4 nM
Cc1c(Cc2cccc(OC(C)(C)C(=O)O)c2)c2ccc(C(=O)N[C@@H](C)c3cccc(C(C)C)c3)cc2n1C — IC50 (PPARA ligand-binding domain; reporter gene, luciferase reporter; HEK293T, Gal4-PPARα LBD): 160 nM
COC1CN([C@H]2CC[C@H]([C@@]3(C)Oc4c(Cl)cc(C(=O)NCc5c(SC)cc(C)[nH]c5=O)c(C)c4O3)CC2)C1 — log2 fold change (RNA-seq, refers to: SERINC2; human, whole blood; dose not given, 24 h; relative to: pretreatment baseline): 2.7
O=C(O)COc1ccccc1NC(=O)C(C(F)(F)F)C(F)(F)F — IC50 (Chymotrypsinogen A; enzyme activity, inhibitor, fluorescence): 120000 nM
OC[C@@H]1[C@@H](O)[C@H](O)[C@@H](O)CN1CCCCCOCCc1ccsc1 — IC50 (GBA2; inhibitor, 4MU-β-D-glucopyranoside; HEK293T homogenates overexpressing GBA2): 2 nM
Cc1ccc2nc(C)n(/N=C/c3ccc(C(=O)O)cc3)c(=O)c2c1 — IC50 (Pancreatic alpha-amylase (Homo sapiens, UniProt P04746); enzyme activity, inhibitor): 626000 ± 17600 nM
Cc1cccc(-c2ccc(COCCCCCN3C[C@H](O)[C@@H](O)[C@H](O)[C@H]3CO)cc2)c1 — IC50 (GBA2; inhibitor, 4MU-β-D-glucopyranoside; HEK293T homogenates overexpressing GBA2): 2 nM
CN(C)c1ccc(/N=N/c2ccc(NC(=O)CCCCN)cc2)cc1 — IC50 (IAPP (Homo sapiens, UniProt P10997); ThT displacement, ThT fluorescence; pH 7.4, preformed target-ThT complex, added: 5 µM ThT): 500 nM
Cc1ccc(S(=O)(=O)N2CC(NC(=O)Cc3ccccc3)C2=O)cc1 (stereo not drawn) — IC50 (Chymotrypsinogen A; enzyme activity, inhibitor, fluorescence): 540 nM
N#Cc1cnc(NC(=O)Nc2cc(Cl)ccc2OC2CCOC2)cn1 (stereo not drawn) — IC50 (CHEK1 (Homo sapiens, UniProt O14757); enzyme activity, inhibitor): 2.95 nM
Nc1ncc2c(n1)-c1c([nH]c3ccc(-c4ccc(F)cc4)cc13)CCC2 — IC50 (PIP4K2C; target engagement in cells, BRET): 77 nM
OC[C@@H]1[C@@H](O)[C@H](O)[C@@H](O)CN1CCCCCOCc1ccsc1 — IC50 (GBA2; inhibitor, 4MU-β-D-glucopyranoside; HEK293T homogenates overexpressing GBA2): 4 nM
Cc1c(Cc2cccc(OC(C)(C)C(=O)O)c2)c2ccc(C(=O)N[C@@H](C)c3cccc(C(C)(C)C)c3)cc2n1C — IC50 (PPARA ligand-binding domain; reporter gene, luciferase reporter; HEK293T, Gal4-PPARα LBD): 485000 nM
O=C(Cc1ccccc1)NCCOc1ccccc1NC(=O)C(C(F)(F)F)C(F)(F)F — IC50 (Chymotrypsinogen A; enzyme activity, inhibitor, fluorescence): 88000 nM
O=C(Nc1ccc(C(=O)Nc2ccc3c(O)cc(S(=O)(=O)O)cc3c2)cc1)c1ccccc1 — IC50 (TREX1 (Homo sapiens, UniProt Q9NSU2); protein-nucleic acid interaction, inhibitor, FP): 3520 nM
O=C(NCC1CC1)c1ccccc1NC(=O)C(C(F)(F)F)C(F)(F)F — IC50 (Chymotrypsinogen A; enzyme activity, inhibitor, fluorescence): 162000 nM
OC[C@@H]1[C@@H](O)[C@H](O)[C@@H](O)CN1CCCCCOCc1ccc2ccccc2c1 — IC50 (GBA2; inhibitor, 4MU-β-D-glucopyranoside; HEK293T homogenates overexpressing GBA2): 1 nM
O=C(Nc1ccccc1OCC1CC1)C(C(F)(F)F)C(F)(F)F — IC50 (Chymotrypsinogen A; enzyme activity, inhibitor, fluorescence): 15000 nM
Cc1nc(Nc2ccc3c(c2)/C(=C/c2ccccc2Cl)C(=O)N3C)c2ccccc2n1 — IC50 (PIK3CG; enzyme activity, inhibitor, ADP detection): 178 nM
Cc1c(Cc2cccc(OC(C)(C)C(=O)O)c2)c2ccc(C(=O)N[C@@H](C)c3cccc(Br)c3)cc2n1C — IC50 (PPARA ligand-binding domain; reporter gene, luciferase reporter; HEK293T, Gal4-PPARα LBD): 60600 nM
O=C(CCl)NCCC(c1ccccc1)c1ccco1 (stereo not drawn) — IC50 (UGT76B1 (Arabidopsis thaliana, UniProt Q9C768); enzyme activity, inhibitor): 137000 nM

Some of these lines once more:
C[C@@H](O)[C@@H]1NC(=O)[C@H](CCCCN)NC(=O)[C@@H](Cc2c[nH]c3ccccc23)NC(=O)[C@H](Cc2ccc(NC(N)=O)cc2)NC(=O)[C@H](NC(=O)[C@H](Cc2ccccc2)NC(N)=O)CSSC[C@@H](C(=O)N[C@@H](Cc2ccc3ccccc3c2)C(N)=O)NC1=O — IC50 (SSTR2 (Homo sapiens, UniProt P30874); radioligand binding, inhibitor, competitive radioligand displacement; cloned receptor): 89 nM
OC[C@@H]1[C@@H](O)[C@H](O)[C@@H](O)CN1CCCCCOCCc1ccsc1 — IC50 (GBA2; inhibitor, 4MU-β-D-glucopyranoside; HEK293T homogenates overexpressing GBA2): 2 nM
Cc1c(Cc2cccc(OC(C)(C)C(=O)O)c2)c2ccc(C(=O)N[C@@H](C)c3cccc(C(C)C)c3)cc2n1C — IC50 (PPARA ligand-binding domain; reporter gene, luciferase reporter; HEK293T, Gal4-PPARα LBD): 160 nM
Cc1cc(C)nc(SCC(=O)Nc2ncc(Cc3cccc(OCc4cn(-c5ccc(Cl)cc5)nn4)c3)s2)n1 — IC50 (SIRT2; enzyme activity, inhibitor, fluorescence): 110 nM
CN(C)c1ccc(CCC(=O)N2C(=O)C3(NC(c4ccc(F)cc4)C4(C(=O)Nc5ccccc54)N3Cc3ccc(F)cc3)c3ccccc32)cc1 (stereo not drawn) — IC50 (PIK3CG; enzyme activity, inhibitor, ADP detection): 49.4 nM
Cc1c(Cc2cccc(OC(C)C(=O)O)c2)c2ccc(C(=O)NC(C)c3ccc(C4CC4)cc3)cc2n1C (mixture of isomers) — IC50 (PPARA ligand-binding domain; reporter gene, luciferase reporter; HEK293T, Gal4-PPARα LBD): 31900 nM
O=C1Nc2c(Br)cccc2/C1=C1/Nc2ccccc2C1=NO — IC50 (RET): > 10000 nM
Cc1c(Cc2cccc(OC(C)(C)C(=O)O)c2)c2ccc(C(=O)N[C@@H](C)c3cccc(C(C)(C)C)c3)cc2n1C — IC50 (PPARA ligand-binding domain; reporter gene, luciferase reporter; HEK293T, Gal4-PPARα LBD): 485000 nM
